{"data": "Published values pooled from the literature", "note": "Each numbered part is a random draw from the data of one study; scales do not carry over between parts.", "chain of UniProt P41143 (whole entry, looked up)": "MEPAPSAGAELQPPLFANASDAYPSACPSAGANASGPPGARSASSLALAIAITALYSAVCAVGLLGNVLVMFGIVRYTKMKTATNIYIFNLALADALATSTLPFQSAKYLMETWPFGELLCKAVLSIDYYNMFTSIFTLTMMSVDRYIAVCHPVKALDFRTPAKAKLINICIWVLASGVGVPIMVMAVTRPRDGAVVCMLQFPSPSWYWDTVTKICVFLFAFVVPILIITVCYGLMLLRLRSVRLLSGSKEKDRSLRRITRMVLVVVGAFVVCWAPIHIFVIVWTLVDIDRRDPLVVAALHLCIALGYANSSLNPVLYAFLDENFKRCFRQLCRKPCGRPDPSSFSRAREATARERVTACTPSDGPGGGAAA"}
{"data": "Sample 1", "target": "Hepatocyte nuclear factor 3-alpha (Foxa1, Mus musculus, UniProt P35582, residues 1-468, full length assumed)", "method": "EMSA with sequencing", "form": "double-stranded DNA, one strand shown", "medium": "in vitro", "tested at": "10 and 20 nM", "setting": "whole designed probe, mean of two concentrations, ends assumed", "relative to": "negative control set to 0", "direction": "higher = stronger binding", "shared flanks, not repeated": "GTGAGCGGTGCCCATTGATGGGGAAC … TTTCACTGGGATCGTGGGGAC", "chain of UniProt P35582 (whole entry, looked up)": "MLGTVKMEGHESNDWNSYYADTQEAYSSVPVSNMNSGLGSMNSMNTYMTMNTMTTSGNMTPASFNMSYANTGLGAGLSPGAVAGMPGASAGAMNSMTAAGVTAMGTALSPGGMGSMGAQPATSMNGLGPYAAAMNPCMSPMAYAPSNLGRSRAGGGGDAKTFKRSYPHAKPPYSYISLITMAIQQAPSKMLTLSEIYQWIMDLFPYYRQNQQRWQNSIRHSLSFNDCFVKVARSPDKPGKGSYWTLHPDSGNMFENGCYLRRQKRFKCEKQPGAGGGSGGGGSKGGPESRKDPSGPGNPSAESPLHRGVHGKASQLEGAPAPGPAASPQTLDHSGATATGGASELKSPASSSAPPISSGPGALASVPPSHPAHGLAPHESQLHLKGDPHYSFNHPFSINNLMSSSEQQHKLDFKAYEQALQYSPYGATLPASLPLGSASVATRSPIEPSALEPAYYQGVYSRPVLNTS"}
{"Strand": "AAGCAGCCAGTGTCTCTGACACCATACAAATAAAATGCAGCACCATTTGGTGATCCAGCCTATGTTTATTCTTCTCCCTTTGGCAACAGACACTATTTACTTACTATCTTTCCCAGAGCAATAGAGGGAAGCCAGGAAAGTGCTGAGCTTGTATTCTACAACCTGAGAAGGAAGTAAGGGAAAGGAAGAGCTC", "normalised bound fraction": "0.422 ratio"}
{"Strand": "CACAAAGCAACTAGACAAATATTGATTTTGTAGTTACTGTAAAGGATTGAACAAAAATATGAAGAGCAGAGTTTCTACTCAAATGTGATCAAAGTCATCTCTGAGGATCTCACGAGATTAAAACAATGCTACTAACCTGGATAAGGTGGCATCCCCCGAAAGACTATTTTCTTACCCTTTTTTGTTTGTTTGA", "normalised bound fraction": "0.394 ratio"}
{"Strand": "ACAGATGCAAAGATGGGGACTCTGAGAACTCGGGTCATCTCTTGCCAAGCTGCTGAATAGCCAGAGGTAGACCCAGGTTCTTTGCAAACTTCCTTATTTACATAGCCATCAAACTGCTTTAAACCTTTGTATTTCTAAAACTGACTTAACAAGTTAAAACAAGTTCAGATCTCTTTGTGGCAACCCAAGTTCT", "normalised bound fraction": "0.418 ratio"}
{"Strand": "TTAGACCCTTTAAGTAAATTGCAAACAGTTCCCCCTGTGTGAAGCATTGTCTAGCCTACCAAACTGCCTGAAACAATCGTTGACATTTCTTGTGTAATTTACAGCAGTGGATTCAGCGCTTCCAAGAATGGGAGTTGAAAAAATAATGAACTATGTTTTTTTCAAGATAAAACACACTGTGCTCTCCAGAAAT", "normalised bound fraction": "0.0607 ratio"}
{"Strand": "CACTCATAGTCTTGCTATCCTTCATATACAGAGATGACCGTCGCAAGCCTAAAATCAACAGGGGGAGGCATAGAGCTGTCCTTCTGGCTCTAATGTTTGCTTTACCATCATCCAGGCGCATTCTTAGTCCAGCATGTGAGAGCCAGTGTGAAGTGAGCAGAATATGGCATAAGTATGGAGTCATACATCCTTA", "normalised bound fraction": "0.338 ratio"}
{"Strand": "CTCATTCCTTGCTTCCGCCAATAATCTGACTAGTAAAGAAGTCACTGCATGCCACAAATTGTCAGTGAGTGACTCAGCAACAAGGAAGTTATTTATTTACTTATTTAATATATGAGTGTCACAGATGCAAATTCCATCTTGAGAATACCAACTCCTGATGCCAACTGATTGTCAGTCATGGCTACAACAGGAG", "normalised bound fraction": "0.454 ratio"}
{"Strand": "ATCTTCCCCCTCTTCCTTGCCCCACCAGCTCACCTTCCCGGGTTATTTGCAGATAGGAAAATAAATAAAGCCGGCATTCGTTAACCCTCTTCTGGCGCAAACTGCTGTTTGCTCTGGATGAATCATGGTCCTTTGGCGACGCCAGGCTAAAAAAAAACAAAGCACCGTGTCAGGGCCATGATCCGGGGTGGCC", "normalised bound fraction": "0.332 ratio"}
{"Strand": "ATCTTCCCCCTCTTCCTTGCCCCACCAGCTCACCTACGGGGGTTATTTGCACAAAGGAAAATAAATAAAGCCGGCATTCGTTAACGCAGTTCACGCGCATACTGCTGTTTGCTCTGCATCTAACATGGTCCTTACGCGAGGCGTGGCTCCGGGAGAGCAAAGCACCGTGTCAGGCGCATGATCCGGGCTCGCC", "normalised bound fraction": "0.403 ratio"}
{"data": "Sample 2", "target": "Centromere-binding protein 1, full length, N-terminal tag (CBF1, Saccharomyces cerevisiae, UniProt P17106, residues 1-351)", "method": "protein-binding microarray", "form": "double-stranded DNA, one strand shown", "medium": "in vitro", "tested at": "0.8 µM", "setting": "whole 60-bp probe, no competitor", "direction": "higher = stronger binding", "shared flanks, not repeated": "… GTCTTGATTCGCTTGACGCTGCTG", "chain of UniProt P17106 (whole entry, looked up)": "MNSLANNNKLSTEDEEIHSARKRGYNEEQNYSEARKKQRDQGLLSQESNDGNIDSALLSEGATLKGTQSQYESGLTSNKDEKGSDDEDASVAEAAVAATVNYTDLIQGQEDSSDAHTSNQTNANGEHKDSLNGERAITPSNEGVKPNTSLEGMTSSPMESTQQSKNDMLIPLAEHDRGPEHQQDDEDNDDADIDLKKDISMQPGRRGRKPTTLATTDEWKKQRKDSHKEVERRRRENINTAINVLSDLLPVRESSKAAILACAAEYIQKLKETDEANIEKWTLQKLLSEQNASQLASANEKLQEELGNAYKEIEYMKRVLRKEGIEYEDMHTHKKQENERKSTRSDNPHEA"}
{"Strand": "CTACCGGGTCCCACACATGTGCGCCCTTAGCCTTTC", "fluorescence intensity": "661 a.u."}
{"Strand": "GAAAACAAGGAACAACGCGTGCTAGCAAGCGGTTAG", "fluorescence intensity": "532 a.u."}
{"Strand": "CTAATGCAATGCCATCACCAGCAAAATGAACCATTC", "fluorescence intensity": "501 a.u."}
{"Strand": "TGTACGAAGCTATGCGACGTGTCTATAGTAGTTAGG", "fluorescence intensity": "503 a.u."}
{"Strand": "CTAAAAAATATCGTCGACGTGTCATGTGATCAATTC", "fluorescence intensity": "10100 a.u."}
{"Strand": "CTAAACTGTGTACGTGATTTCTTTGTCCCCTGCTTC", "fluorescence intensity": "736 a.u."}
{"Strand": "TGTACGAAGCTATTTGAGGTGACTATAGTAGTTAGG", "fluorescence intensity": "519 a.u."}
{"Strand": "CCTAACTACTATATCGACGTGTCATAGCTTCGTACA", "fluorescence intensity": "530 a.u."}
{"data": "Other studies, line by line", "HLA class I histocompatibility antigen, C alpha chain allele C*04:01": "HLA class I histocompatibility antigen, C alpha chain, allele C*04:01 (Homo sapiens, UniProt P10321)"}
{"Substance": "RENHTEGLL", "target": "HLA class I histocompatibility antigen, C alpha chain allele C*04:01", "read-out": "peptide-MHC binding", "form": "peptide", "tested at": "concentration not given", "endpoint": "binding", "value": "inactive"}
{"Substance": "COc1ccc2c(c1)O[C@@H](c1ccc(OC)c(OC)c1)C[C@H]2NC(=O)C1(c2ccc3c(c2)OC(F)(F)O3)CC1", "target": "OPRD1 (Homo sapiens, UniProt P41143)", "read-out": "binding", "method": "radioligand binding", "tested at": "10 µM", "endpoint": "inhibition", "value": "-9.84%"}
{"Substance": "AEFVFSCGI", "target": "HLA class I histocompatibility antigen, C alpha chain allele C*04:01", "read-out": "peptide-MHC binding", "form": "peptide", "tested at": "concentration not given", "endpoint": "binding", "value": "inactive"}
{"note": "A few entries again (sample 1):"}
{"Strand": "CACAAAGCAACTAGACAAATATTGATTTTGTAGTTACTGTAAAGGATTGAACAAAAATATGAAGAGCAGAGTTTCTACTCAAATGTGATCAAAGTCATCTCTGAGGATCTCACGAGATTAAAACAATGCTACTAACCTGGATAAGGTGGCATCCCCCGAAAGACTATTTTCTTACCCTTTTTTGTTTGTTTGA", "normalised bound fraction": "0.394 ratio"}
